Results gathered from unrelated publications.
Every numbered part comes from another study and shows a few of its results, in no order.

Series 1 — method: universal PBM; form: double-stranded DNA, one strand shown; sample: in vitro; concentration: 600 nM; direction: higher = stronger binding
Target: Sal-like protein 4, full length isoform A (SALL4, Homo sapiens, UniProt Q9UJQ4, residues 1-1053)
UniProt Q9UJQ4, sequence (whole entry, looked up): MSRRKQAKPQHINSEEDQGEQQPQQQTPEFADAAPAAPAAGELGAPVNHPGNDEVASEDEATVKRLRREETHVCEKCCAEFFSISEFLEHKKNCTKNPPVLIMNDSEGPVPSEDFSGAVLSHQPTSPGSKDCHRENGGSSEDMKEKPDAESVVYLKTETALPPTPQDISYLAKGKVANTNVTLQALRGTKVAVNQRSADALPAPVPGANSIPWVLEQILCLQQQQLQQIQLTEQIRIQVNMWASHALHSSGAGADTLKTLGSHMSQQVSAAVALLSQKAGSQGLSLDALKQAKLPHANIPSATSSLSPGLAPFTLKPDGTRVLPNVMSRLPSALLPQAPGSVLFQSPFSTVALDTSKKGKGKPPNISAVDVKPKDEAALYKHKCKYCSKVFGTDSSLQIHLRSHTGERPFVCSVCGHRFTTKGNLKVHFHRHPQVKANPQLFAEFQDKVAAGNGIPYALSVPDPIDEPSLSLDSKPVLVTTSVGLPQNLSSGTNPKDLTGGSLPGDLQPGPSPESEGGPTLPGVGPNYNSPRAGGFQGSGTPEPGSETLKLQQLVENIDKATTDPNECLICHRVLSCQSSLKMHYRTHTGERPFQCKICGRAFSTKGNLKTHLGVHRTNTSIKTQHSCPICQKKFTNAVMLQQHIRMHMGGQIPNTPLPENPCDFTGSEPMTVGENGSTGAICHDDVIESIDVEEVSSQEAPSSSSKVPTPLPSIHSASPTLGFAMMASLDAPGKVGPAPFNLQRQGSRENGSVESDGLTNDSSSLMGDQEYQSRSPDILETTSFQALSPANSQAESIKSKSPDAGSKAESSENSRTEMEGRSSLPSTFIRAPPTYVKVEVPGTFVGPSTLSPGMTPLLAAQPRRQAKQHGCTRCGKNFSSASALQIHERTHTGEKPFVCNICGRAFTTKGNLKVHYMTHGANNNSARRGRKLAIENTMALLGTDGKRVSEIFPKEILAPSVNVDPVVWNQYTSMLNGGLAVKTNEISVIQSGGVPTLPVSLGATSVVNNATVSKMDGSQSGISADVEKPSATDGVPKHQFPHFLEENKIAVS
Notes: 8-mer, flanks averaged, mean of replicates
| Sequence | E-score |
| --- | --- |
| CCGCACGG | -0.302 |
| GCCTAGCC | -0.231 |
| TAGTGGGA | -0.108 |
| CACACGGA | -0.229 |
| CAGAAGCG | -0.0175 |
| CCAGATTA | 0.221 |
| AGAGAATG | 0.0538 |
| CTGCCGGC | -0.305 |
| ATCTTAAT | 0.258 |
| CAAGTTGA | 0.00237 |
| AGGGATTC | -0.17 |
| CGCCACCG | -0.304 |
| AGACCTCG | -0.175 |
| CATCACTA | 0.257 |
| ACCAACTC | -0.112 |
| ACTGGCCG | -0.355 |
| AAGCCACC | -0.127 |
| ACTAACTC | 0.0772 |
| ACCAAAGA | 0.235 |
| CTGGGGTA | -0.163 |
| AAACAGTG | 0.0551 |
| CGTATGCA | 0.0985 |
| CAAGTAGG | -0.171 |
| CAGGTCAA | -0.141 |
| CGGCACAA | -0.147 |

Series 2 — method: RNA Bind-n-Seq; form: RNA; sample: in vitro; concentration: 200 nM; notes: whole 134-nt RNA, ends assumed; together with: 150 mM LiCl; relative to: input library; direction: higher = stronger binding; all molecules: 7-deaza-guanosine replaces G
Target: Fragile X messenger ribonucleoprotein 1, C-terminal low-complexity region (Fmr1, Mus musculus, UniProt P35922)
Constant ends, left off below: GGGAGUUCUACAGUCCGACGAUC … UGGAAUUCUCGGGUGUCAAGG
| Sequence | log2 enrichment |
| --- | --- |
| GUCCUGUGCUACACAUCGUAUGUACCGAAUCGGGGUUUUUGGGGAAAAAGGGGUGGGGAAAGUAUUAUGUUACGCCGUUCGGAUCUGCAC | -1.55 |
| CCUCAAGUCCUGUGCUACACAUCGUAUGUACCGAAUCGGCGGGCGGGGCGGGAAAGUAUUAUGUUACGCCGUUCGGAUCUGCACUUCCAG | 0.406 |
| GUCCUGUGCUACACAUCGUAUGUACCGAAUCGGGGAAAAAGGAAAAAGGAAAAAGGGGAAAGUAUUAUGUUACGCCGUUCGGAUCUGCAC | 0.254 |
| GUCCUGUGCUACACAUCGUAUGUACCGAAUCAAACCCCCCCAAAUUUUUAAAUUUAAAAAAGUAUUAUGUUACGCCGUUCGGAUCUGCAC | 1.67 |
| CUGUGCUACACAUCGUAUGUACCGAAUCGGGGUUUUUGGGGUUUUUUUGGGGUUUUUGGGGAAAGUAUUAUGUUACGCCGUUCGGAUCUG | 1.78 |
| UGUGCUACACAUCGUAUGUACCGAAUCGGGUUUUUUUGGGGUUUUUUUGGGUUUUUUUGGGGAAAGUAUUAUGUUACGCCGUUCGGAUCU | 1.69 |
| UCCUGUGCUACACAUCGUAUGUACCGAAUCGGGGUUUUUGGGGAGGGGAAAAAAAGGGGAAAGUAUUAUGUUACGCCGUUCGGAUCUGCA | -0.891 |
| ACCAUGCAGGUGGGCAUCUUUGGGAAGUGGGGCAAGGGGGGGAUAGGGAGGGGGGUAACACUUUGGGAACAGGUGGUGCCAGGUCGUUUC | 1.39 |

Series 3 — method: protein-binding microarray; form: double-stranded DNA, one strand shown; sample: in vitro; concentration: 2540 nM top; notes: 60-bp whole probe; together with: salmon DNA 0.4 mg/ml; relative to: random background probes; direction: higher = stronger binding; constant ends, left off below: GCCTAGCAC … GTCTTGATTCGCTTGACGCTGCTG
Target: Interferon regulatory factor 3, full length, phosphomimetic (IRF3, Homo sapiens, UniProt Q14653, residues 1-427, S386D/S396D/S398D/S402D/T404D/S405D)
Construct (chain): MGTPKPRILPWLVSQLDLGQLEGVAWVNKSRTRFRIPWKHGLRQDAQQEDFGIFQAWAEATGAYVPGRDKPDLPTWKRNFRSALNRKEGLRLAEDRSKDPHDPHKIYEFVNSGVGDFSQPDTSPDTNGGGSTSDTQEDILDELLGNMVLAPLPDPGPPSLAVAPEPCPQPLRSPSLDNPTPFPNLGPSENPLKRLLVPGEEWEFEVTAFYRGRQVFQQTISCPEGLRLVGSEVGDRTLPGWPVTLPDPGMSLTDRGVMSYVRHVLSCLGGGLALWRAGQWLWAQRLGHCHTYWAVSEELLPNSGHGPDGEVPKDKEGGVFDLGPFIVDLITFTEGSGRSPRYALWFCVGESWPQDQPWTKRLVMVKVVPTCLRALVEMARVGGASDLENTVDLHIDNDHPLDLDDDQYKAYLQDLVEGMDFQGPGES
| Sequence | fitted relative affinity [z-score] |
| --- | --- |
| GACGGTATCGTACTGCTGACGTGCTAG | 1.48 |
| TTAGGACTGGACTTTTGGTTAGTGCTA | -0.601 |
| TCCTCTTTCACTGCTCCATACGTGCTA | 2.02 |
| GACGTACTGCTACTGCTGACGTGCTAG | -0.401 |
| TCATACATGGGTTTTCAGACTGTGCTA | 0.152 |
| GACGATCTCGGTCTCGAGACGTGCTAG | 0.735 |
| ATAGAACTGAGTTTCGATTAGTGCTAG | 2.75 |
| GACGGACTGAGACTGGGGACGTGCTAG | -0.617 |
| CTTGAACCTGGGAGGTGGAGGTGCTAG | -0.776 |

Series 4 — method: RNA Bind-n-Seq; form: RNA; sample: in vitro; concentration: 365 nM; relative to: no-protein control; direction: higher = stronger binding
Target: RNA binding protein fox-1 homolog 2, RRM domain, GST-SBP tag (RBFOX2, Homo sapiens, UniProt O43251-10, residues 100-194)
Notes: natural RNA segment, single round, ends assumed
Constant ends, left off below: GGGAGUUCUACAGUCCGACGAUC … UGGAAUUCUCGGGUGCCAA
Residues (chain): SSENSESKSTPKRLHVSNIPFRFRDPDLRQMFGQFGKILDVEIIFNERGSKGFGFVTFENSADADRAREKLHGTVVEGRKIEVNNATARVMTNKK
| Sequence | RBNS enrichment (R) |
| --- | --- |
| UUCGAAGAUGGGUUGUGGCUGGGUAUUCCCUCCCAUGGUGUUUCCUCUGGGAUGCUCUUCAUUAUCUCAAUGCCUGUGCCAUGAAGAUAGAAAACUGUAAGCUAACAUUU | 0.629 |
| GCCACCCACCCAUCAUAUUUGAUUCUGUGGGAGUGGGCACCCAUACACCUGUGUAUGUGAAAGUCAUUUUACAUUUCCAAGCAGUCUGUUUCUUAUUUUUAUAUUUUAAC | 0.338 |
| AUCUUCCAUAAUUUUAUGGUAUUACACAGGGAAAGCUAUGACUGCAGGAUCAGUCUAACUAUACUAUUAGGUGCAUGUAUUCUCUUUUCACUAACUUAUACUUGUCUAUC | 2.04 |
| CCUCCUGAGUGCUGGGAUUAAAGGCAAAAGCCACCACAGCCUGUUUUGUUUUGUUUUCGGUUUAAAAACAACAACAAACUGUGUGCAUGCAGAAUACAGACCUUGAGGUU | 2.06 |
| AGCAUAAACGCCUUCCGGAAGGACCUGCAGCUCCAGAGACCACCUCCUGAGCACCAAGACCUCUUCUGGUGGUGUGGAACCAGCCAAGAGAUUUCAAGGAAGAGUGAUUA | 0.458 |
| UUGUUUCGCUGACCCCGCUCUUGUGUGUUCCCUCUGGUGCCCACCCCAGGGCAUCUGCCAACUCCAGCAUCAACUCAACUCCCACCGCAUACCUGGUGCUGUCCCUGGGC | 0.713 |
| UUAAGGAUAUGAUUAAUAUUAUUAAUAUAAUAAUGAUGAUGAUGAUGAUGAAAACUAAGGAUUUUUCAAGAGAUCUUUCUUUCCAAAACAUUUCUGGACAGUACCUGAUU | 0.456 |
| CUGGCUUCUUUCACUCAGUAAUGUUUCUGAAGUUCCUCCCUGUAGUGGCAUCUAUCAGUAAUUGCUUUCCUUUUUAUUGCUGGGCUGAAUGCUGUUCCAUUGUAUGGCUG | 0.554 |

Excerpt of the above (series 3):
| Sequence | fitted relative affinity [z-score] |
| --- | --- |
| GACGGTATCGTACTGCTGACGTGCTAG | 1.48 |
| TCCTCTTTCACTGCTCCATACGTGCTA | 2.02 |
| TCATACATGGGTTTTCAGACTGTGCTA | 0.152 |
